Published values pooled from the literature.
Each line is one published result; not all experiments were run side by side. Values joined by “and” are separate records of one study, mostly repeats; a detail may differ. Numbers after ± are the reported error.
Dipeptidyl peptidase 8: Dipeptidyl peptidase 8 (Homo sapiens, UniProt Q6V1X1)
MAPK8: Mitogen-activated protein kinase 8 (MAPK8, Homo sapiens, UniProt P45983)

`CC(=O)N[C@H]1[C@H]([C@H](O)[C@H](O)CNC(=O)c2ccc(-c3ccccc3)cc2)O[C@@](OCc2cn(CC(O)Cn3c([N+](=O)[O-])cnc3C)nn2)(C(=O)O)C[C@@H]1O` (stereo partly drawn) has a ΔH of -8.26 ± 0.4 kcal/mol (CD22 (Homo sapiens, UniProt P20273); isothermal titration calorimetry).
For `OC[C@H]1O[C@@H](Oc2ccccc2-c2ccccc2)[C@H](O)[C@@H](O)[C@H]1O`, the inhibition (PI10) was 31 ± 2.1% (Adhesin FmlH, lectin domain (Escherichia coli, UniProt Q1RBS0); binding to desialylated BSM, competition ELISA; UPEC UTI89; 10 µM).
For `CCC1(CC)C(=O)N(c2cccc(CN3CCN(C)CC3)c2)C1=O`, the selectivity ratio was greater than 4 (Dipeptidyl peptidase 8; inhibitor; added: GP-AMC substrate; reference: Ki' DPP9 over Ki' DPP8).
`CCCCCC(O)/C=C/C=O` (stereo not drawn) — result for “isoTOP-ABPP competition ratio”: 1.6 (Elongation factor 2, Cys41 (EEF2, Homo sapiens, UniProt P13639); competitive isoTOP-ABPP; Ramos soluble proteome; 100 µM, 60 min, added: iodoacetamide probe; reference: DMSO over compound-treated, higher = stronger cysteine blockade).
`CCCCCCCC/C=C\CCCCCCCC(=O)OCC(O)COP(=O)(O)O` (stereo not drawn) has a fold change of 1 and 1.01 and 0.997 and 0.99 and 0.984 and 0.998 (LPAR1 (Homo sapiens, UniProt Q92633); G-protein dissociation, agonist, NanoBiT; HEK-293T; 100 pM, wild-type receptor; reference: baseline luminescence).
Under activity, `O=C(NC[C@@H](Cc1ccc(F)cc1)N1CCC(O)(C(F)(F)F)CC1)C1(c2ccc(Cl)cc2)CCCC1` is recorded as “inactive” (TRPA1 (Homo sapiens, UniProt O75762, I946M); concentration not given).
With `CN(C)c1ccc(-n2cc(COC(=O)[C@@]3(C)C=C(C(=O)OC(C)(C)C)C(=O)CC3)nn2)cc1` the fraction bound was 0.222 (MAPK8; D-peptide binding, inhibitor, FP peptide displacement; 200 µM; lower is stronger displacement).
For `C[C@@H]1C[C@H](Nc2ccccc2)c2cc(F)ccc2N1C(=O)c1ccc(F)cc1`, the pIC50 Z-score was -0.94 (Ecdysone receptor (Aedes albopictus, UniProt Q9U3Y4); ligand binding, inhibitor; intact cells; added: [3H]ponasterone A; direction not given).
The fraction bound of `COC(=O)[C@@]1(C)C=C(C(=O)OC(C)(C)C)C(=O)CC1` is reported as 0.768 (MAPK8; D-peptide binding, inhibitor, FP peptide displacement; 31.25 µM; lower is stronger displacement).
For `O=C1c2sc(-c3ccc(N4CCC(F)C4)nc3F)nc2CCN1c1cccnc1` (stereo not drawn), the inhibition was -12% (SKCa channel; radioligand binding; 1 µM, added: antagonist radioligand).
With `CC(C)[C@@H]1NC(=O)[C@H](Cc2ccccc2)NC(=O)CSC[C@@H](C(N)=O)NC(=O)[C@H](CCC(=O)O)NC(=O)[C@H](CO)NC(=O)[C@H](Cc2c[nH]c3cccc(Cl)c23)NC(=O)[C@H](C2CCCCC2)NC(=O)[C@H](C(C)C)NC(=O)[C@H](Cc2ccc(O)cc2)NC(=O)[C@H](CC(=O)O)NC(=O)[C@H](Cc2c[nH]c3ccccc23)NC(=O)[C@H](Cc2ccc(N)nc2)NC(=O)[C@H](Cc2c[nH]c3ccc(Cl)cc23)NC(=O)[C@H](CCC(=O)O)NC1=O` the remaining activity was 98.9% (Interleukin-1 receptor-like 2 (IL1RL2, Homo sapiens, UniProt Q9HB29); reporter gene (SEAP), inhibitor, HEK-Blue IL-36R reporter; HEK-Blue IL-36R cells; 0.005 µM, 6 h, added: IL-36γ 100 ng/mL).
`CC1=C(/C=C/C(C)=C\C=C\C(C)=C\C=O)C(C)(C)CCC1` — result for “Pearson correlation coefficient”: 0.456 ± 0.01 (Rhodopsin (RHO, Homo sapiens, UniProt P08100, T17M); ER retention, co-localization with calnexin; COS-7 transfected T17M; 10 µM, mononucleated cells).
`O=C(O)C(F)(F)F.O=C1N(c2cccc(CN3CCc4cc5c(cc4C3)OCO5)c2)C(=O)C12CCCCC2`: “activity vs control” 69% (Dipeptidyl peptidase 8; enzyme activity, inhibitor; 5 µM).
`COc1cc(C2C(NC(=O)c3ccc(NC(=O)OC(C)(C)C)cc3)(C(=O)O)C(c3ccc(OC(=O)c4cccs4)c(OC)c3)C2(NC(=O)c2ccc(NC(=O)OC(C)(C)C)cc2)C(=O)O)ccc1OC(=O)c1cccs1` (stereo not drawn) has an Emax of 4.43 ± 2.33% (GLP1R (Homo sapiens, UniProt P43220, D198A); cAMP accumulation, agonist; receptor mutant; reference: wild type).
The ΔTm of `CC[C@H](C)[C@@H]1NC(=O)[C@H](Cc2ccc(O)cc2)NC(=O)[C@H](Cc2ccccc2)NC(=O)[C@H](C(C)C)NC(=O)[C@H](Cc2ccccc2)NC(=O)CSC[C@@H](C(=O)N[C@@H](Cc2c[nH]cn2)C(N)=O)NC(=O)[C@H](CC(N)=O)NC(=O)[C@H](Cc2c[nH]c3ccccc23)NC1=O` is reported as 8.66 °C (STING1 (Homo sapiens, UniProt Q86WV6, H232R); thermal stability, DSF; 50 µM).
Under “HAB1 phosphatase activity”, `O=[N+]([O-])c1cc(Br)cc([N+](=O)[O-])c1NS(=O)(=O)c1ccc(Br)cc1` is recorded as 0.106 a.u. and 0.117 a.u. and 0.107 a.u. (PYL10, with HAB1 (Arabidopsis thaliana, UniProt Q8H1R0); antagonist; 250 µM, added: ABA 5 µM; higher = more HAB1 activity).
`COC(=O)[C@]1(C)C=C(C(=O)Nc2cccc(C(=O)Nc3ccc(Nc4nccc(-c5cccnc5)n4)c(C)c3)c2)C(=O)CC1` gave a kon of 290000 M⁻¹ s⁻¹ (MAPK8 (Homo sapiens, UniProt P45983, C116S); binding, SPR; 100, 300, 1000 nM, 1:1 binding model).
The iBAQ abundance of `N#CN1CC[C@H](C(=O)Nc2nc3c(s2)CN(C(=O)Cn2cc(COCCOCCOCCOCCNC(=O)CCCC[C@@H]4SC[C@@H]5NC(=O)N[C@@H]54)nn2)CC3)C1` is reported as 2.43e+08 (Isochorismatase domain-containing protein 1 (Homo sapiens, UniProt Q96CN7); probe binding, affinity probe, neutravidin pull-down LC-MS/MS; HEK293T, cell lysate; 5 µM, 1 h, mean of three replicates, unit not given; higher = more pulled down).
For `COC(=O)[C@]1(Cc2ccccc2)C=C(C(=O)OC(C)(C)C)C(=O)CC1`, the fraction bound was 0.0328 (MAPK8; D-peptide binding, inhibitor, FP peptide displacement; 31.25 µM; lower is stronger displacement).
For `CCOC(=O)C(CC)(CCCSCCCCCCNc1ccc([N+](=O)[O-])c2nonc12)NC(=O)c1ccc(C2CC2)c(Cc2ccc(F)cc2)n1` (stereo not drawn), the Emax was 122% (Cnr2 (Mus musculus, UniProt P47936); cAMP, agonist).
The binding stoichiometry of `O=C(O)[C@@H]1O[C@@H](O[C@H]2[C@H](O)[C@H](O)[C@H](O[C@H]3[C@H](O)[C@H](O)[C@H](O[C@H]4[C@H](O)[C@H](O)[C@H](O)O[C@H]4C(=O)O)O[C@H]3C(=O)O)O[C@H]2C(=O)O)[C@@H](O)[C@@H](O)[C@@H]1O` is reported as 4.8 (Beta-lactoglobulin (LGB, Bos taurus, UniProt P02754, A134V/G80D); isothermal titration calorimetry; concentration not given, pH 2.65, 37 °C, 50 mM KH2PO4; ligand per protein).
For `CSc1cc(C)[nH]c(=O)c1CNC(=O)c1cc(Cl)c2c(c1C)OC(C)(C1CCC(N(C)C)CC1)O2` (stereo not drawn), the residence time was 138000 min (EZH2 (Homo sapiens, UniProt Q15910); binding, TR-FRET; added: H3K27me3 activating peptide).
`Clc1ccc(C(Cn2cncn2)OCc2ccc3ccccc3c2)c(Cl)c1` (stereo not drawn): “activity vs control” 110% (ULK1 (Homo sapiens, UniProt O75385); enzyme activity, inhibitor, ADP detection; 0.1 µM).
`CCCCCC=CC=C1C(=O)C=CC1CC=CCCCC(=O)O` (stereo not drawn): “isoTOP-ABPP competition ratio” 5.1 (REEP5 (Homo sapiens, UniProt Q00765); competitive isoTOP-ABPP; proteome, soluble, MDA-MB-231; 100 µM, 60 min, added: iodoacetamide probe; reference: DMSO over compound-treated, higher = stronger cysteine blockade).
The cAMP luminescence of `CC(C)Oc1cc(Cl)ccc1CNc1cc(-c2ccccc2)nc2ncnn12` is reported as 10800 a.u. and 8220 a.u. and 8180 a.u. and 7820 a.u. and 4430 a.u. (GPR3 (Homo sapiens, UniProt P46089); cAMP reporter; human cells; 1 µM; higher is more cAMP).
For `Cn1cc(-c2cc(N3CCCCS3(=O)=O)ccc2N[C@H]2CC[C@H](C)CC2)c2cc[nH]c2c1=O` (stereo in doubt), the remaining binding was 100% (Transcription initiation factor TFIID subunit 1-like, BD2 (TAF1L, Homo sapiens, UniProt Q8IZX4); binding, competition with immobilised ligand; 1 µM).
For `CN(C)c1ccc(C#CCOC(=O)[C@]2(C)C=C(C(=O)OC(C)(C)C)C(=O)CC2)cc1`, the fraction bound was 0.259 (MAPK8; D-peptide binding, inhibitor, FP peptide displacement; 125 µM; lower is stronger displacement).
